# Measurements pooled from the literature.
# Parts stem from different laboratories: compare values within a part only.

# Sample 1
# Target: RING finger protein unkempt homolog, zinc fingers 1-6, SBP tag (UNK, Homo sapiens, UniProt Q9C0B0, residues 30-357)
# UniProt Q9C0B0, sequence (30-357, looked up): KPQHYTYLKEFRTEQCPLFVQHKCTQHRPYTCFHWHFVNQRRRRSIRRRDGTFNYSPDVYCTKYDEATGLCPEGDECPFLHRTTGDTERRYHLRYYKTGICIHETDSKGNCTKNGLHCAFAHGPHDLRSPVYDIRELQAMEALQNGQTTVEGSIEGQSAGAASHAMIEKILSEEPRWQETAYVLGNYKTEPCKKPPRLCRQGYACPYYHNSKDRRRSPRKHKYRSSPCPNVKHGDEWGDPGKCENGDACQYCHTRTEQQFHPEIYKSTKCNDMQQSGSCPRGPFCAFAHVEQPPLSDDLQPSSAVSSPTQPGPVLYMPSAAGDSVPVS
# Technique: RNA Bind-n-Seq
# Form: RNA
# Medium: in vitro
# Tested at: 100 nM
# Setting: RNA with constant flanks, ends assumed
# Reference: input RNA pool
# Direction: higher = stronger binding
Sequence,bound/input enrichment [ratio]
GGGAGUUCUACAGUCCGACGAUCAGAAAAUUUUAACCAAGAAUCUGAAGGCCGAAAUACAGGACCAUGGUUAUCUUCCUCACUCCGAAACCGAUGCACACCUUUGUUCUCCCGAAGGAGGCGAGAGGGAAGAGAUGAAUCUUCCAACAGAGGAUUGAGCAUCA,0.229
GGGAGUUCUACAGUCCGACGAUCAGCCGUUUUAAGCUUGUUUGCACAGUUCUUUUUUUCCAUUGGAAAUGGAAUUCAUUGCCUCCGGUCUUUUUAAACCGUGUAUUAUUAUCGUUGGGGCUGGCUCUAUGCUUGAAAACCAGUCAACAGAGGAUUGAGCAUCA,0.505
GGGAGUUCUACAGUCCGACGAUCCCCUCUGAACCCCAUAUCUUCUGUUUCAUAAUGCAGAAGUAUUCUUUUCAAUUAUAUUGUCCGUGGACUUGUUUUAAUUUCCGAGAAACUUUGAGUACAGAUACUGUGAGCUUACAUUGACAACAGAGGAUUGAGCAUCA,0.645
GGGAGUUCUACAGUCCGACGAUCGGGUUUGGGGCCGAAGGGAGGGAGGGGGCAGGACAGUGUGGAAUCUCCCGGGUGUAUGGGCCGGCCGGGGGCACAGUCCGUUCUAAGUGGGCUUUUAUGCUAAAAGCCUCUGGGGAUAUCCAACAGAGGAUUGAGCAUCA,0.348

# Sample 2
# Target: Ras GTPase-activating protein-binding protein 1, full length (G3BP1, Homo sapiens, UniProt Q13283)
# UniProt Q13283, sequence (whole entry, looked up): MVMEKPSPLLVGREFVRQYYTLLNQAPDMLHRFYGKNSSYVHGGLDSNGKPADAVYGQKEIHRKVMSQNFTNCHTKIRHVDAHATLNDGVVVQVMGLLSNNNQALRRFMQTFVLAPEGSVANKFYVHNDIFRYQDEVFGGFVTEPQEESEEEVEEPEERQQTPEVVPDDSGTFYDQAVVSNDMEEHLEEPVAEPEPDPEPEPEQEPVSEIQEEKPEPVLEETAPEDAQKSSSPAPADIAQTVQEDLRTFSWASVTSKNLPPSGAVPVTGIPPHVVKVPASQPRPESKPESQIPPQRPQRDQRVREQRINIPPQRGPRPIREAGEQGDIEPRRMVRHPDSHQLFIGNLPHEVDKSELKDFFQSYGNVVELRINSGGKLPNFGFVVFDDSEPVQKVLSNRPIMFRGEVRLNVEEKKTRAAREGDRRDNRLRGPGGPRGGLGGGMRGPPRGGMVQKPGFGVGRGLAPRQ
# Technique: RNA Bind-n-Seq
# Form: RNA
# Medium: in vitro
# Tested at: 200 nM
# Setting: whole 134-nt RNA, ends assumed
# Added: 150 mM LiCl
# Reference: input library
# Direction: higher = stronger binding
# All molecules: 7-deaza-guanosine replaces G
# Constant ends, left off below: GGGAGUUCUACAGUCCGACGAUC … UGGAAUUCUCGGGUGUCAAGG
Sequence,log2 enrichment
UGGGAGGUGGAUUUUGUUUAUUUUUUUAGCUCAUUUCCAGGGGUGGGAAUUUUUUUUUAAUAUGUGUCAUGAAUAAAGUUGAUUUUGAAA,-0.187
UUGCGGCAGCCGCCCCCUUCUGCGCGGUCACGCCGAGCCAGCGCCUGGGCCUGGAACCGGGCCGUAGCCCCCCCAGUUUCGCCCACCACC,0.268
AGUCCUGUGCUACACAUCGUAUGUACCGAAUCAAACCCCCCCAAACCCAAAUUUAAAAAAGUAUUAUGUUACGCCGUUCGGAUCUGCACU,0.942
ACCAUGCAGGUGGGCAUCUUUGGGAAGUGGGGCAAGGGGGGGAUAGGGAGAGGGGUAACACUUUGGGAACAGGUGGUCCCAGGUCGUUUC,0.347
AAGUCCUGUGCUACACAUCGUAUGUACCGAAUCGGGUUUUUGGGAAAGGGAAAGGGAAAGUAUUAUGUUACGCCGUUCGGAUCUGCACUU,-0.22
ACCAUGCAGGUGGGCAUCUUUGGGGAGUGGGGCAAGGGGGGGAUAGGGAGGGGGGUAACACUUUGGGAACAGGUGGUCCCAGGUCGUUUC,-0.0367
AGUCCUGUGCUACACAUCGUAUGUACCGAAUCGGGGAAAGGGGUUUGGGGUUUGGGGAAAGUAUUAUGUUACGCCGUUCGGAUCUGCACU,-0.751
UCCUCAAGUCCUGUGCUACACAUCGUAUGUACCGAAUCGGUGGGGUGGUGGAAAGUAUUAUGUUACGCCGUUCGGAUCUGCACUUCCAGC,-0.253
CUGUGCUACACAUCGUAUGUACCGAAUCGGGGUUUUUUUGGGGUUUGGGGUUUUUUUGGGGAAAGUAUUAUGUUACGCCGUUCGGAUCUG,0.928
GGACAAGAAUCCUUCAAGAAACAGGAAAAAACUCCUAAAACACCAAAAGGACCUAGUUCUGUAGAAGACAUUAAAGCAAAAAUGCAAGCA,1.04
UUUUACAACCCCAAUUUAAAGAAAGUUGUAGAGGCCCACAAGAUCGUUCUCUGCGCUGUAAGCCAUGUUUUCAUGCUGCUUUUCAAUGUG,-1.43

# Sample 3
# Target: Prothrombin, mature alpha-thrombin (F2, Homo sapiens, UniProt P00734)
# Technique: aptamer microarray, sandwich
# Form: DNA with 2'F-ANA
# Medium: in vitro
# Tested at: 200 nM
# Setting: whole 15-mer aptamer, many near background
# Added: Cy3 exosite-II aptamer, 400 nM
# Direction: higher = stronger binding
# Sequence: GGTTGGTGTGGTTGG
Modification,mean fluorescence intensity
2'F-ANA at 5 6 7 8 12 14,63.5 a.u.
2'F-ANA at 7 8 9 10 15,164 a.u.
2'F-ANA at 1 3 4 6 7 8 9 10,65.8 a.u.
2'F-ANA at 4 5 7 8 9 12 13,98.1 a.u.
2'F-ANA at 2 4 5 7 8 9 10 12 15,54.2 a.u.
2'F-ANA at 1 4 6 7 10 11 12 14,75.8 a.u.
2'F-ANA at 1 2 4 5 10 11 12 13 15,56.3 a.u.
2'F-ANA at 1 5 7 9 11 13 14 15,47.3 a.u.
2'F-ANA at 1 3 8 11 12 13 15,476 a.u.
2'F-ANA at 2 3 7 8 13 15,752 a.u.
2'F-ANA at 2 3 4 6 9 10 11 14,141 a.u.
2'F-ANA at 1 3 5 9 11 12 14,47.8 a.u.
2'F-ANA at 3 4 6 7 9 10 11 12 13,207 a.u.
2'F-ANA at 1 2 3 4 5 6 8 12 13 14,83.3 a.u.
2'F-ANA at 3 6 7 8 14 15,555 a.u.
2'F-ANA at 5 10 12 14,43.9 a.u.
2'F-ANA at 3 4 6 7 8 10 11 12 13,259 a.u.

# Sample 4
# Target: PABPC1L2, full length, GST fusion (mouse, UniProt A0ABA7IW68)
# Technique: RNAcompete
# Form: RNA
# Medium: in vitro
# Tested at: 20 nM
# Setting: 7-mer, probes averaged, single round
# Reference: mean of 7-mers
# Direction: higher = stronger binding
# Construct (chain): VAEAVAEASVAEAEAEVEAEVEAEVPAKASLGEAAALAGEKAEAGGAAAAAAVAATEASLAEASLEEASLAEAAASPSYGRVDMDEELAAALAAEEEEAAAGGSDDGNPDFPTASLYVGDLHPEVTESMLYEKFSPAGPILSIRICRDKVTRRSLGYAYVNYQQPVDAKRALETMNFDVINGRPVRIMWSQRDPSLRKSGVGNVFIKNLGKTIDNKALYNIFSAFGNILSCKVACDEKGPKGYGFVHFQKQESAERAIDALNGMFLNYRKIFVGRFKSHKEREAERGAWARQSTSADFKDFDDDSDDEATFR
Sequence,7-mer Z-score
AAGGGUA,0.365
AAUGUGU,-0.141
GUCUCAG,-0.277
GGGAGAU,0.167
UCGGCAC,-0.179
UUUGCAG,-0.347
AUGACUC,-0.0718
UAAUUGG,-0.00108
CACGCUC,-0.246
CCCUGGG,-0.416
CUAAGUU,-0.335
CAACCCU,-0.141
CUAGUGC,-0.237
GGGAUGG,0.535
CUGUUGU,-0.374
ACCGAGA,0.0678
AGGACGU,0.0678
GCGUUGA,-0.117
GGCUCAC,-0.11
CCCUGUA,-0.244
AACCCAC,-0.144
AGAGGAU,-0.0554
GCACGCG,-0.103
CUUGCUA,-0.273
GCCUCCC,-0.508

# Sample 5
# Target: Histone acetyltransferase KAT6A, winged helix 1, GST fusion (KAT6A, Homo sapiens, UniProt Q92794, residues 1-85)
# Technique: protein binding microarray
# Form: double-stranded DNA, one strand shown
# Medium: in vitro
# Tested at: not given
# Setting: 8-mer, flanks averaged, mean of 2 arrays, mostly near background
# Reference: not given
# Direction: higher = stronger binding
# Target sequence (chain): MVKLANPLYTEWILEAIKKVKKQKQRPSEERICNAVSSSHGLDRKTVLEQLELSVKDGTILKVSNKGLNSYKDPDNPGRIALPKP
Sequence,E-score
AGCGGCTG,0.239
CCATTTCA,-0.235
AGTGTCGC,0.125
CTAGGATC,-0.0745
ACTTTAAA,0.0845
GACTAGCC,0.0525
TAAAAGGA,-0.149
ACCGCTCG,0.269
AACAGATG,-0.288
ACTACGCT,0.115
ACCCCCAA,-0.272
AATTCCTC,-0.161
ATCCAGGA,-0.102
GTATATTA,-0.104
AGTCTTAT,-0.11
CGGGCGAC,0.356
GCAGTTAC,0.0904

# Sample 6
# Target: Sal-like protein 4, full length isoform A (SALL4, Homo sapiens, UniProt Q9UJQ4, residues 1-1053)
# UniProt Q9UJQ4, sequence (whole entry, looked up): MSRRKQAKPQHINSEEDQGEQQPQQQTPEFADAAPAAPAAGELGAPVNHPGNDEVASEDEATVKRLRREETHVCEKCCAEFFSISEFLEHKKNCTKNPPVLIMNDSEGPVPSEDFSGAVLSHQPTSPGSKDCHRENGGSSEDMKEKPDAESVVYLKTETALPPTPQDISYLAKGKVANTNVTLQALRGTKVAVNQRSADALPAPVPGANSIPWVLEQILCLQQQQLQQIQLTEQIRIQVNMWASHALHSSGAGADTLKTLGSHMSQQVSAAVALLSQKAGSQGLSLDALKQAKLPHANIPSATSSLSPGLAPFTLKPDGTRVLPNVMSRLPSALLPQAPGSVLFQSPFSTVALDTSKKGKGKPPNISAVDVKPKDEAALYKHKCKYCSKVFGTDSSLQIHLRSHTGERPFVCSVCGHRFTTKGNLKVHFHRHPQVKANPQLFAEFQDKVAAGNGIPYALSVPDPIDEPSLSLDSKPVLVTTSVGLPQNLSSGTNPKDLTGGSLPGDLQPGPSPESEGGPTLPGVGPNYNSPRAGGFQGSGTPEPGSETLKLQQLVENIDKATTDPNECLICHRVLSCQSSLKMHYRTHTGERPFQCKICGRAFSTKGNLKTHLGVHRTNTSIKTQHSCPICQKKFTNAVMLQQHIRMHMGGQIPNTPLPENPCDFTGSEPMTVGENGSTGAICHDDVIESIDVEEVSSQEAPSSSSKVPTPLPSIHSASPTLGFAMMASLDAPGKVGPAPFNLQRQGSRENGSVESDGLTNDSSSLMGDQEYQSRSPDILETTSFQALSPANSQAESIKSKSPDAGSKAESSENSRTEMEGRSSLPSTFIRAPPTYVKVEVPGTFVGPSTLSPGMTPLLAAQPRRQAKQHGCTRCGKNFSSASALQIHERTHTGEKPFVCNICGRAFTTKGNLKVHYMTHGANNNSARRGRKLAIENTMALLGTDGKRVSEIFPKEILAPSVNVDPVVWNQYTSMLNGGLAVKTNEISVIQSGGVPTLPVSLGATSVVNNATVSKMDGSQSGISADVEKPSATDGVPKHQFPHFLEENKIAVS
# Technique: universal PBM
# Form: double-stranded DNA, one strand shown
# Medium: in vitro
# Tested at: 600 nM
# Setting: 8-mer, flanks averaged, mean of replicates
# Direction: higher = stronger binding
Sequence,E-score
CATGCCAA,0.11
AAAGATGC,0.0133
CCTTGCAA,-0.165
CCTCACTC,-0.0928
ATGAATGG,0.143
GGAATTTA,0.111
ATTCTTCA,0.155
GCAGAAGC,-0.135
AGCGCGAG,-0.219
ATGAAGCA,0.0697
GAGTCAAC,0.038
CCCCGACG,-0.331
CATAAGCG,0.0643
TCATCGGA,0.0301
CCCATCGA,-0.0495
GAGAGTAC,0.0273

# For quick reference, copied from above (sample 5):
Sequence,E-score
ATCCAGGA,-0.102
CTAGGATC,-0.0745
AGCGGCTG,0.239
GCAGTTAC,0.0904
ACCCCCAA,-0.272
AACAGATG,-0.288
AATTCCTC,-0.161
ACTTTAAA,0.0845
TAAAAGGA,-0.149
AGTGTCGC,0.125
CCATTTCA,-0.235
